Assay results from different studies.
Compare with care: the assays were run in different laboratories. ± gives the spread as reported.
Sequence of UniProt P21729 (whole entry, looked up): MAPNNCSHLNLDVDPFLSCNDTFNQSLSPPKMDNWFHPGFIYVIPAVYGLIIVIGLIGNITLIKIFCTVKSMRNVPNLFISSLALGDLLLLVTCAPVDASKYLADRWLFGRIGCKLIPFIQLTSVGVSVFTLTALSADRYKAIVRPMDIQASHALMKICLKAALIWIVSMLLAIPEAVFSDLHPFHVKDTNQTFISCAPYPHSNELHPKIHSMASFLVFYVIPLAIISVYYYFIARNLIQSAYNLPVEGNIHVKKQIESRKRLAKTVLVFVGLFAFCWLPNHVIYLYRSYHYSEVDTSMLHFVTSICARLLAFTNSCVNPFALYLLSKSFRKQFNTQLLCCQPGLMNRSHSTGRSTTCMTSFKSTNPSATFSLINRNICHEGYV

CC[C@H](C)[C@H](NC(=O)[C@H](CO)NC(=O)[C@H](Cc1ccc(O)cc1)NC(=O)[C@H](Cc1ccc(O)cc1)NC(=O)[C@H](CC(N)=O)NC(=O)CNC(=O)[C@H](CO)NC(=O)[C@H](Cc1ccc(O)cc1)NC(=O)[C@H](CO)NC(=O)[C@H](CO)NC(=O)[C@H](CC(N)=O)NC(=O)COCCOCCNC(=O)CN1CCN(CC(=O)O)CCN(CC(=O)O)CCN(CC(=O)O)CC1)C(=O)N[C@@H](CC(C)C)C(N)=O [copper-64 labelled]  tissue uptake (NOD/SCID mouse CAPAN-1 xenograft; intravenous, 2.5 h, with: 500-fold excess unlabelled compound): 1.21 ± 0.64 %ID/g
CC(C)C[C@H](NC(=O)[C@H](Cc1c[nH]cn1)NC(=O)[C@H](Cc1ccc(O)cc1)NC(=O)[C@H](CCCNC(=N)N)NC(=O)[C@H](Cc1ccc(O)cc1)NC(=O)[C@H](CCCCN)NC(=O)[C@H](CCCCN)NC(=O)c1ccc(CN/C(=N/C(=O)c2ccccc2)Nc2ccc(Br)cc2)cc1)C(=O)N[C@@H](CCCCN)C(=O)N1CCC[C@H]1C(=O)N[C@@H](Cc1ccccc1)C(=O)NCCCC[C@H](NC(=O)[C@H](Cc1ccccc1)NC(=O)[C@@H]1CCCN1C(=O)[C@H](CCCCN)NC(=O)[C@H](CC(C)C)NC(=O)[C@H](Cc1c[nH]cn1)NC(=O)[C@H](Cc1ccc(O)cc1)NC(=O)[C@H](CCCNC(=N)N)NC(=O)[C@H](Cc1ccc(O)cc1)NC(=O)[C@H](CCCCN)NC(=O)[C@H](CCCCN)NC(=O)c1ccc(CN/C(=N/C(=O)c2ccccc2)Nc2ccc(Br)cc2)cc1)C(N)=O  CC50 (Swiss mouse peritoneal macrophages; MTT): 2000 ± 0.11 µM
CCCNC(=O)[C@H](CC(C)C)NC(=O)[C@H](Cc1c[nH]cn1)NC(=O)CNC(=O)[C@@H](NC(=O)[C@H](C)NC(=O)[C@H](Cc1c[nH]c2ccccc12)NC(=O)[C@H](CCC(N)=O)NC(=O)[C@@H](Cc1ccccc1)NC(=O)CCCCCNC(=O)CN1CCN(CC(=O)O)CCN(CC(=O)O)CCN(CC(=O)O)CC1)C(C)C [indium-111 labelled]  tissue uptake (Gastrin-releasing peptide receptor (Mus musculus, UniProt P21729); biodistribution; CF-1 mice, muscle; intravenous, 1 h, unblocked): 0.04 ± 0.01 %ID/g
N=C(N)NCCC[C@@H]1NC(=O)[C@H](CCCCNC(=O)CCOCCOCCOCCOCCNC(=O)CC[C@H](NC(=O)CCOCCOCCOCCOCCNC(=O)CC[C@H](NC(=O)CN2CCN(CC(=O)O)CCN(CC(=O)O)CCN(CC(=O)O)CC2)C(=O)NCCOCCOCCOCCOCCC(=O)N[C@@H](CCC(=O)NCCOCCOCCOCCOCCC(=O)NCCCC[C@@H]2NC(=O)[C@@H](Cc3ccccc3)NC(=O)[C@H](CC(=O)O)NC(=O)CNC(=O)[C@H](CCCNC(=N)N)NC2=O)C(=O)NCCOCCOCCOCCOCCC(=O)NCCCC[C@@H]2NC(=O)[C@@H](Cc3ccccc3)NC(=O)[C@H](CC(=O)O)NC(=O)CNC(=O)[C@H](CCCNC(=N)N)NC2=O)C(=O)NCCOCCOCCOCCOCCC(=O)NCCCC[C@@H]2NC(=O)[C@@H](Cc3ccccc3)NC(=O)[C@H](CC(=O)O)NC(=O)CNC(=O)[C@H](CCCNC(=N)N)NC2=O)NC(=O)[C@@H](Cc2ccccc2)NC(=O)[C@H](CC(=O)O)NC(=O)CNC1=O [indium-111 labelled]  tissue uptake (athymic nude mice, female, U-87 MG glioma xenograft, U-87 MG tumour; intravenous, 3 µCi, 24 h): 6.86 ± 1.87 %ID/g
CCCC[C@H](NC(=O)CCCCCCCNC(=O)c1ccc(NN)nc1)C(=O)N[C@H]1CC(=O)NCCCC[C@@H](C(N)=O)NC(=O)[C@H](Cc2c[nH]c3ccccc23)NC(=O)[C@H](CCCNC(=N)N)NC(=O)[C@@H](Cc2ccccc2)NC(=O)[C@H](Cc2c[nH]cn2)NC1=O [technetium-99m labelled]  uptake (C57 mouse, B16/F1 melanoma, lung; intravenous, 4 h): 0.5 ± 0.19 %ID/g
N=C(N)NCCC[C@@H]1NC(=O)[C@H](CCCCNC(=O)CC[C@H](NC(=O)CCOCCOCCOCCOCCNC(=O)CN2CCN(CC(=O)O)CCN(CC(=O)O)CCN(CC(=O)O)CC2)C(=O)NCCCC[C@@H]2NC(=O)[C@@H](Cc3ccccc3)NC(=O)[C@H](CC(=O)O)NC(=O)CNC(=O)[C@H](CCCNC(=N)N)NC2=O)NC(=O)[C@@H](Cc2ccccc2)NC(=O)[C@H](CC(=O)O)NC(=O)CNC1=O [indium-111 labelled]  tissue uptake (athymic nude mice, female, U-87 MG glioma xenograft, U-87 MG tumour; intravenous, 3 µCi, 24 h): 3.08 ± 0.6 %ID/g
CCCC[C@H](NC(=O)CNC(=O)CNC(=O)c1ccc(NN)nc1)C(=O)N[C@H]1CC(=O)NCCCC[C@@H](C(N)=O)NC(=O)[C@H](Cc2c[nH]c3ccccc23)NC(=O)[C@H](CCCNC(=N)N)NC(=O)[C@@H](Cc2ccccc2)NC(=O)[C@H](Cc2c[nH]cn2)NC1=O [technetium-99m labelled]  tissue uptake (C57 mouse, B16/F1 melanoma, urine; 2 h, with: L-lysine 12 mg): 95 ± 1.54 %ID
N=C(N)NCCC[C@@H]1NC(=O)[C@H](CCCCNC(=O)CC[C@H](NC(=O)CCOCCOCCOCCOCCNC(=O)CC[C@H](NC(=O)CN2CCN(CC(=O)O)CCN(CC(=O)O)CCN(CC(=O)O)CC2)C(=O)NCCOCCOCCOCCOCCC(=O)N[C@@H](CCC(=O)NCCCC[C@@H]2NC(=O)[C@@H](Cc3ccccc3)NC(=O)[C@H](CC(=O)O)NC(=O)CNC(=O)[C@H](CCCNC(=N)N)NC2=O)C(=O)NCCCC[C@@H]2NC(=O)[C@@H](Cc3ccccc3)NC(=O)[C@H](CC(=O)O)NC(=O)CNC(=O)[C@H](CCCNC(=N)N)NC2=O)C(=O)NCCCC[C@@H]2NC(=O)[C@@H](Cc3ccccc3)NC(=O)[C@H](CC(=O)O)NC(=O)CNC(=O)[C@H](CCCNC(=N)N)NC2=O)NC(=O)[C@@H](Cc2ccccc2)NC(=O)[C@H](CC(=O)O)NC(=O)CNC1=O [indium-111 labelled]  tissue uptake (female athymic nude mice, blood; intravenous, 3 µCi, 24 h, U-87 MG glioma xenograft): 0.03 %ID/g
CSCC[C@H](NC(=O)[C@H](CC(C)C)NC(=O)[C@H](Cc1c[nH]cn1)NC(=O)CNC(=O)[C@@H](NC(=O)[C@H](C)NC(=O)[C@H](Cc1c[nH]c2ccccc12)NC(=O)[C@H](CCC(N)=O)NC(=O)CCCCCNC(=O)CNC(=O)CNC(=O)CNC(=O)CSC(C)=O)C(C)C)C(N)=O [technetium-99m labelled]  tissue uptake (Swiss mouse, blood; intravenous, 18.5 MBq, 30 min): 0.36 ± 0.06 %ID/g
CC[C@@]1(O)C(=O)OCc2c1cc1n(c2=O)Cc2cc3cc(OC(=O)CCCC(=O)NCC(=O)N[C@@H](Cc4ccccc4)C(=O)N[C@@H](Cc4ccccc4)C(=O)N[C@@H](Cc4ccc(O)cc4)C(=O)NCCS)ccc3nc2-1  nanofibre size (TEM and AFM; PBS; 100 µM, pH 7.4, with: alkaline phosphatase then GSH 400 µM): 4 to 9 nm

Some of these lines once more:
CSCC[C@H](NC(=O)[C@H](CC(C)C)NC(=O)[C@H](Cc1c[nH]cn1)NC(=O)CNC(=O)[C@@H](NC(=O)[C@H](C)NC(=O)[C@H](Cc1c[nH]c2ccccc12)NC(=O)[C@H](CCC(N)=O)NC(=O)CCCCCNC(=O)CNC(=O)CNC(=O)CNC(=O)CSC(C)=O)C(C)C)C(N)=O [technetium-99m labelled]  tissue uptake (Swiss mouse, blood; intravenous, 18.5 MBq, 30 min): 0.36 ± 0.06 %ID/g
CC[C@@]1(O)C(=O)OCc2c1cc1n(c2=O)Cc2cc3cc(OC(=O)CCCC(=O)NCC(=O)N[C@@H](Cc4ccccc4)C(=O)N[C@@H](Cc4ccccc4)C(=O)N[C@@H](Cc4ccc(O)cc4)C(=O)NCCS)ccc3nc2-1  nanofibre size (TEM and AFM; PBS; 100 µM, pH 7.4, with: alkaline phosphatase then GSH 400 µM): 4 to 9 nm
